# Results gathered from unrelated publications.
# Every numbered part comes from another study and shows a few of its results, in no order.
# UniProt O95382, sequence (whole entry, looked up): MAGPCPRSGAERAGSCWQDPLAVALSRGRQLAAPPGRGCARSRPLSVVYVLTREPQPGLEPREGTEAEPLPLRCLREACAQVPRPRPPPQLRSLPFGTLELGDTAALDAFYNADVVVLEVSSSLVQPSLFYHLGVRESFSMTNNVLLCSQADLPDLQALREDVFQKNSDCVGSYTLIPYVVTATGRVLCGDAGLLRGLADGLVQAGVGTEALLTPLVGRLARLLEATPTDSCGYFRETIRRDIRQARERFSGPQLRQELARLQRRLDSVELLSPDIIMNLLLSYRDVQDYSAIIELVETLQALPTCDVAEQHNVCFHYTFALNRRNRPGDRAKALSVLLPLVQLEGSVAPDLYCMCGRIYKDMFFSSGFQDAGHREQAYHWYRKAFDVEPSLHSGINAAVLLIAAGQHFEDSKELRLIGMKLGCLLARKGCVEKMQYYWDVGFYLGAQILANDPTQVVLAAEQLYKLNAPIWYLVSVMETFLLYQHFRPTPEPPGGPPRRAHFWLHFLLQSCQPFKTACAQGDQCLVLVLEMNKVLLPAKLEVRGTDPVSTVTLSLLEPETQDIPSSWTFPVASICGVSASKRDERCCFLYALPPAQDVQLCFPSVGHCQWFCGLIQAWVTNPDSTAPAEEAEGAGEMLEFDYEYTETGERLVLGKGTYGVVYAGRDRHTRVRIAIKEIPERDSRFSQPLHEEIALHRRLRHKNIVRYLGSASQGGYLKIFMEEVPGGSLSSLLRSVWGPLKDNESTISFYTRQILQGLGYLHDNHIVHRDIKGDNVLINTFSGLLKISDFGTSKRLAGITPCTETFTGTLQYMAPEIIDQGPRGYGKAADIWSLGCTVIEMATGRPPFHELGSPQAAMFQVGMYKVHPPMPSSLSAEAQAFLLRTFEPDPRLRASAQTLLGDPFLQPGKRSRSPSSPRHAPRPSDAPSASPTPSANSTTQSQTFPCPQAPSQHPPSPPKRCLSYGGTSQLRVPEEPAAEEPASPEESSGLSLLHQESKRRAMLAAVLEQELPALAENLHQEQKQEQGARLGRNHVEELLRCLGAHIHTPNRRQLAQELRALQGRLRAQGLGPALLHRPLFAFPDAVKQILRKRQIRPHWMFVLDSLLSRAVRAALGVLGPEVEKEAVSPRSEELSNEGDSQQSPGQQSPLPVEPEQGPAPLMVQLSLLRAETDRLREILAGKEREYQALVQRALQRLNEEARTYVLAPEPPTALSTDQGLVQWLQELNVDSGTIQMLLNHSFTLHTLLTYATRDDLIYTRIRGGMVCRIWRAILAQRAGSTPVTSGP
# UniProt Q9BWU1, sequence (whole entry, looked up): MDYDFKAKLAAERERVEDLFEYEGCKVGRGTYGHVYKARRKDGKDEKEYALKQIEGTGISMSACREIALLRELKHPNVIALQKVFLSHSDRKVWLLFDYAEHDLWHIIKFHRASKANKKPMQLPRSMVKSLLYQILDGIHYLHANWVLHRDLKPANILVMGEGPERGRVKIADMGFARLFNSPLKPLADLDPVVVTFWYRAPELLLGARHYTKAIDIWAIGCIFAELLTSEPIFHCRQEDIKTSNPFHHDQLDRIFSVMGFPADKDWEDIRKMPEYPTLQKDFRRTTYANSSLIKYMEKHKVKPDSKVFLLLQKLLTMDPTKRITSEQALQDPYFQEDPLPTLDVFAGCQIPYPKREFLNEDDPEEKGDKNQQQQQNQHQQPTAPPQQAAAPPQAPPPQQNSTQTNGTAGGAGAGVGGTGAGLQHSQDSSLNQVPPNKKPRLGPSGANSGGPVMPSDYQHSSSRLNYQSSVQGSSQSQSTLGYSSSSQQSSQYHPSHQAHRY
# UniProt Q9Y2U5, sequence (whole entry, looked up): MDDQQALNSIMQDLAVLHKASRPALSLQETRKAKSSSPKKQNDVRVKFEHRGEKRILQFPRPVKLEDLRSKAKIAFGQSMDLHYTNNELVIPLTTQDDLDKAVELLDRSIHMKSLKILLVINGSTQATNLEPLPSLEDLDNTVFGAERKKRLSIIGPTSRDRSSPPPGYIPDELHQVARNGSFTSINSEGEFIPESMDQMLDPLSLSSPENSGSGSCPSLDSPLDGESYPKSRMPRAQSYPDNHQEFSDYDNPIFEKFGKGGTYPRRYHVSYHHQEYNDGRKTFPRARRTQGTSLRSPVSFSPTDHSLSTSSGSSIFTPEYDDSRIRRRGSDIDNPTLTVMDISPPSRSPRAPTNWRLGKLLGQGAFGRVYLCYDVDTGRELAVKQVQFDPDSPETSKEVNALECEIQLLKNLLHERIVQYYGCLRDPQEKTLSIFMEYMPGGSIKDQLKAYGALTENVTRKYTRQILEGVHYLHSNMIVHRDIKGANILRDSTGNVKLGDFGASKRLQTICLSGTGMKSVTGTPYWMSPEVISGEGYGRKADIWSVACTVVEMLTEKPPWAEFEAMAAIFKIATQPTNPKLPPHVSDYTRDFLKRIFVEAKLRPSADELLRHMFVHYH
# UniProt Q15349, sequence (whole entry, looked up): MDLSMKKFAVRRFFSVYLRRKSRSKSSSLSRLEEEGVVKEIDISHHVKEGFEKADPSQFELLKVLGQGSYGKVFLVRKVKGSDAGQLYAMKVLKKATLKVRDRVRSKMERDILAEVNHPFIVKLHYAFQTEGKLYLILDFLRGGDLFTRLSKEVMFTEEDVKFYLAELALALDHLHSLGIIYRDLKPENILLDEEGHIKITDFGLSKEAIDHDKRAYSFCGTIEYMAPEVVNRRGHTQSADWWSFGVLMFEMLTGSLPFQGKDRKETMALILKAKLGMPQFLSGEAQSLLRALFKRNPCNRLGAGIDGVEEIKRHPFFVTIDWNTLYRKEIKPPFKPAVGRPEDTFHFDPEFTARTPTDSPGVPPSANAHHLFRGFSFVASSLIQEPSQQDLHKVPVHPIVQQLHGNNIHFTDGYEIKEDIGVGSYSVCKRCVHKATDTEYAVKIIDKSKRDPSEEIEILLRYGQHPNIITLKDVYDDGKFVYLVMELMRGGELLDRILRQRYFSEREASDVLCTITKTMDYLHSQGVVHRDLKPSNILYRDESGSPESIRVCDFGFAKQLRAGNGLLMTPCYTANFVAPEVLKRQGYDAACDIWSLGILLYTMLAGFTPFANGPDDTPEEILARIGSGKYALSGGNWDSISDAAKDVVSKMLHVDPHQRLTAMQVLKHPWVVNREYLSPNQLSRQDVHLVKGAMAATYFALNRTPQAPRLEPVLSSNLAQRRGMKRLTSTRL
# UniProt Q15831, sequence (whole entry, looked up): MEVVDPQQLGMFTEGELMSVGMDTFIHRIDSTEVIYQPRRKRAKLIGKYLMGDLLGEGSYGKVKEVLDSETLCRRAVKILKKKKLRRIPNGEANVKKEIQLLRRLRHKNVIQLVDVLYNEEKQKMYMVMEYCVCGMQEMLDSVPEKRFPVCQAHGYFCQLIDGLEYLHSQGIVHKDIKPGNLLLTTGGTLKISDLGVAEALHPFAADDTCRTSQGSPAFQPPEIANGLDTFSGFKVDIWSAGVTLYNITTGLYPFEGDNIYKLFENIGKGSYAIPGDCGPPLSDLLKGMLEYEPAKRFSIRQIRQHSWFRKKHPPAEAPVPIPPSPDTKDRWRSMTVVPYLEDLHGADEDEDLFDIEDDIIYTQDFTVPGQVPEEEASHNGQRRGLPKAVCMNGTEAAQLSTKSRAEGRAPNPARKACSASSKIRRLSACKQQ
# UniProt P49841, sequence (whole entry, looked up): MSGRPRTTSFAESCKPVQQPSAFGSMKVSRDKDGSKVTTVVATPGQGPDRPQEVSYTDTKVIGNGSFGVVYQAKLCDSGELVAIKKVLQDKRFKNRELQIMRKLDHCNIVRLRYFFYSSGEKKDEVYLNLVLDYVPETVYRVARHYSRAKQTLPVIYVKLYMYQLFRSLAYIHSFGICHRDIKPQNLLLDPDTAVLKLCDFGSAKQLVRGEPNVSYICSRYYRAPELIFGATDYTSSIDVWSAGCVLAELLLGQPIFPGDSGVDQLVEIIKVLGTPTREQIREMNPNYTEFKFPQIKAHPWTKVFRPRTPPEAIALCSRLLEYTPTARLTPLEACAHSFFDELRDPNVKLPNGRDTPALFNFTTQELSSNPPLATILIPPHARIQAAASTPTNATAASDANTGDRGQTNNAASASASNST

# Series 1 — host: mouse; matrix: microsomes or S9; concentration: 2 µM; time: 0.5 h
Compound,remaining compound
CCOc1cc(=O)n2c(c1C(=O)NCc1ccc(C)o1)CCCCC2,11.5%
C/C(=C/c1cnc2ccsc2c1)c1cnccn1,2.15%
CC(Oc1cccnc1N)c1nnc2ccc(Cl)nn12 (stereo not drawn),64.9%
O=c1[nH]c2c(c(=O)n1-c1cccc(F)c1)[S+]([O-])CC2 (stereo not drawn),81.1%
Cc1nn2cnnc2c(C)c1CCC(=O)Nc1nccs1,15.8%
CCC1c2cccn2-c2sc3c(c2CN1C(=O)NCCCOC)CCCC3 (stereo not drawn),1.01%
O=C(CCc1ccc(C(F)(F)F)cc1)N1C2C=CCC1CC2 (stereo not drawn),2.39%

# Series 2 — cell line: HaCaT; concentration: 100 µM; time: 60 h
Compound,viability
O=C(c1ccc(F)cc1)C1CCN(CCn2c(=O)[nH]c3ccccc3c2=O)CC1,90.9%
[H]/N=C(/N)N/C(=N/[H])NCCc1ccccc1,108%
CN(N=O)C(=O)N[C@@H](C=O)[C@@H](O)[C@H](O)[C@H](O)CO,144%
COc1cccc2c1C(=O)c1c(O)c3c(c(O)c1C2=O)C[C@@](O)(C(C)=O)C[C@@H]3O[C@H]1C[C@H](N)[C@H](O)[C@H](C)O1,45.9%

# Series 3 — concentration: 1 µM
# Compound: O=S(=O)(NC1CCC(c2cc(F)ccc2F)(S(=O)(=O)c2ccc(Cl)cc2)CC1)C(F)(F)F (stereo not drawn)
target,test,remaining binding [%]
"MAP3K6 (Homo sapiens, UniProt O95382)","cell-free assay, competition with immobilised ligand",82
"GSK3B (Homo sapiens, UniProt P49841)","cell-free assay, competition with immobilised ligand",100
"MAP3K4 (Homo sapiens, UniProt Q9Y6R4)","cell-free assay, competition with immobilised ligand",99
"CDK17 (Homo sapiens, UniProt Q00537)","cell-free assay, competition with immobilised ligand",100
"EGFR (Homo sapiens, UniProt P00533, T790M)","cell-free assay, competition with immobilised ligand",93
"PRKD3 (Homo sapiens, UniProt O94806)","cell-free assay, competition with immobilised ligand",100
"Ribosomal protein S6 kinase alpha-2, N-terminal kinase domain (RPS6KA2, Homo sapiens, UniProt Q15349)","cell-free assay, competition with immobilised ligand",100
"EGFR (Homo sapiens, UniProt P00533, L858R)","cell-free assay, competition with immobilised ligand",100
"STK11 (Homo sapiens, UniProt Q15831)","cell-free assay, competition with immobilised ligand",100
"SRC (Homo sapiens, UniProt P12931)","cell-free assay, competition with immobilised ligand",100
"FLT3 (Homo sapiens, UniProt P36888, D835H)","cell-free assay, competition with immobilised ligand",90
"CHUK (Homo sapiens, UniProt O15111)","cell-free assay, competition with immobilised ligand",100
"WEE1 (Homo sapiens, UniProt P30291)","cell-free assay, competition with immobilised ligand",90
"Ribosomal protein S6 kinase alpha-6, C-terminal kinase domain (RPS6KA6, Homo sapiens, UniProt Q9UK32)","cell-free assay, competition with immobilised ligand",90
"MAP4K2 (Homo sapiens, UniProt Q12851)","cell-free assay, competition with immobilised ligand",100
"CDK19 (Homo sapiens, UniProt Q9BWU1)",competition binding,100
"NEK3 (Homo sapiens, UniProt P51956)","cell-free assay, competition with immobilised ligand",81
"MAP2K4 (Homo sapiens, UniProt P45985)","cell-free assay, competition with immobilised ligand",76
"EPHA8 (Homo sapiens, UniProt P29322)","cell-free assay, competition with immobilised ligand",100
"DYRK1B (Homo sapiens, UniProt Q9Y463)","cell-free assay, competition with immobilised ligand",100
"BMPR2 (Homo sapiens, UniProt Q13873)","cell-free assay, competition with immobilised ligand",100
"STK16 (Homo sapiens, UniProt O75716)","cell-free assay, competition with immobilised ligand",97
"MAP3K1 (Homo sapiens, UniProt Q13233)","cell-free assay, competition with immobilised ligand",100
"Aurora kinase C (AURKC, Homo sapiens, UniProt Q9UQB9)","cell-free assay, competition with immobilised ligand",94
"HASPIN (Homo sapiens, UniProt Q8TF76)","cell-free assay, competition with immobilised ligand",69

# Series 4 — observed: enzyme activity; action: inhibitor; concentration: 10 µM
# Target: Calcium/calmodulin-dependent protein kinase type II subunit alpha (CAMK2A, Homo sapiens, UniProt Q9UQM7)
# UniProt Q9UQM7, sequence (whole entry, looked up): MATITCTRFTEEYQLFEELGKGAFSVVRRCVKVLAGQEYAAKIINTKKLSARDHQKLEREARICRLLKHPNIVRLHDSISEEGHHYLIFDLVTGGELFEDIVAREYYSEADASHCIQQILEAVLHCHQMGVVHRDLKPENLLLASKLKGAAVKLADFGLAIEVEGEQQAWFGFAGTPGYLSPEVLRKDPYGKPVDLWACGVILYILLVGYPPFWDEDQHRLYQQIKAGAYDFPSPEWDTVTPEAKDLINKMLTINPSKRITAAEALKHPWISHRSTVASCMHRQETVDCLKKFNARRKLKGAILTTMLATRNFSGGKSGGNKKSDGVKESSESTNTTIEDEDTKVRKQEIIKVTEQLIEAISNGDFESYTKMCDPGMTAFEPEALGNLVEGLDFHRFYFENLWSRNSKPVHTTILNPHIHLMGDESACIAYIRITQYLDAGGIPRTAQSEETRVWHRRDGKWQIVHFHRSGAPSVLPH
SMILES,inhibition
CC(C)[C@@H](C)[C@@H](O)[C@H](O)[C@@H](C)[C@H]1CC[C@H]2[C@@H]3COC(=O)[C@H]4C[C@H](O)[C@H](O)C[C@]4(C)[C@H]3CC[C@]12C,-14%
O=C(Nc1c(Cl)cncc1Cl)c1ccc(OC(F)F)c(OCC2CC2)c1,-15%
Nc1nc(N)c2nc(-c3ccccc3)c(N)nc2n1,2%
CCC(c1ccccc1)c1c(O)c2ccccc2oc1=O (stereo not drawn),1%
Cc1ccc(Cl)c(Nc2ccccc2C(=O)O)c1Cl,-5%
CC=C1[C@@H]2C=C(C)C[C@@]1(N)c1ccc(=O)[nH]c1C2 (racemic),-5%

# Series 5 — observed: enzyme activity; concentration: 5 µM
# Compound: O=C(Nc1cnn(-c2csc(C(=O)NC3COC3)c2)c1)Nc1c(F)cccc1Cl
target,test,how to read,remaining activity [%]
"EGFR (Homo sapiens, UniProt P00533)",,reference: untreated control,85.6
"MAP3K2 (Homo sapiens, UniProt Q9Y2U5)",,reference: untreated control,78.6
"MARK4 (Homo sapiens, UniProt Q96L34)",,reference: untreated control,97.9
"CSNK1E (Homo sapiens, UniProt P49674)",,reference: untreated control,87.2
"RPS6KA1 (Homo sapiens, UniProt Q15418)",,reference: untreated control,96
"FLT1 (Homo sapiens, UniProt P17948)",,reference: untreated control,82.3
"PRKACG (Homo sapiens, UniProt P22612)",inhibitor,,97.6
"MAPKAPK5 (Homo sapiens, UniProt Q8IW41)",,reference: untreated control,96.3
"RPS6KA4 (Homo sapiens, UniProt O75676)",,reference: untreated control,99.3

# For quick reference, copied from above (series 3):
target,test,remaining binding [%]
"CDK17 (Homo sapiens, UniProt Q00537)","cell-free assay, competition with immobilised ligand",100
"EGFR (Homo sapiens, UniProt P00533, L858R)","cell-free assay, competition with immobilised ligand",100
"MAP3K4 (Homo sapiens, UniProt Q9Y6R4)","cell-free assay, competition with immobilised ligand",99
